Measurements from different studies.
Protocols differ between the studies behind these lines. “And” joins repeats or separate records; there may be more than shown. ± marks the error that the study gave.
UniProt P49327, sequence (whole entry, looked up): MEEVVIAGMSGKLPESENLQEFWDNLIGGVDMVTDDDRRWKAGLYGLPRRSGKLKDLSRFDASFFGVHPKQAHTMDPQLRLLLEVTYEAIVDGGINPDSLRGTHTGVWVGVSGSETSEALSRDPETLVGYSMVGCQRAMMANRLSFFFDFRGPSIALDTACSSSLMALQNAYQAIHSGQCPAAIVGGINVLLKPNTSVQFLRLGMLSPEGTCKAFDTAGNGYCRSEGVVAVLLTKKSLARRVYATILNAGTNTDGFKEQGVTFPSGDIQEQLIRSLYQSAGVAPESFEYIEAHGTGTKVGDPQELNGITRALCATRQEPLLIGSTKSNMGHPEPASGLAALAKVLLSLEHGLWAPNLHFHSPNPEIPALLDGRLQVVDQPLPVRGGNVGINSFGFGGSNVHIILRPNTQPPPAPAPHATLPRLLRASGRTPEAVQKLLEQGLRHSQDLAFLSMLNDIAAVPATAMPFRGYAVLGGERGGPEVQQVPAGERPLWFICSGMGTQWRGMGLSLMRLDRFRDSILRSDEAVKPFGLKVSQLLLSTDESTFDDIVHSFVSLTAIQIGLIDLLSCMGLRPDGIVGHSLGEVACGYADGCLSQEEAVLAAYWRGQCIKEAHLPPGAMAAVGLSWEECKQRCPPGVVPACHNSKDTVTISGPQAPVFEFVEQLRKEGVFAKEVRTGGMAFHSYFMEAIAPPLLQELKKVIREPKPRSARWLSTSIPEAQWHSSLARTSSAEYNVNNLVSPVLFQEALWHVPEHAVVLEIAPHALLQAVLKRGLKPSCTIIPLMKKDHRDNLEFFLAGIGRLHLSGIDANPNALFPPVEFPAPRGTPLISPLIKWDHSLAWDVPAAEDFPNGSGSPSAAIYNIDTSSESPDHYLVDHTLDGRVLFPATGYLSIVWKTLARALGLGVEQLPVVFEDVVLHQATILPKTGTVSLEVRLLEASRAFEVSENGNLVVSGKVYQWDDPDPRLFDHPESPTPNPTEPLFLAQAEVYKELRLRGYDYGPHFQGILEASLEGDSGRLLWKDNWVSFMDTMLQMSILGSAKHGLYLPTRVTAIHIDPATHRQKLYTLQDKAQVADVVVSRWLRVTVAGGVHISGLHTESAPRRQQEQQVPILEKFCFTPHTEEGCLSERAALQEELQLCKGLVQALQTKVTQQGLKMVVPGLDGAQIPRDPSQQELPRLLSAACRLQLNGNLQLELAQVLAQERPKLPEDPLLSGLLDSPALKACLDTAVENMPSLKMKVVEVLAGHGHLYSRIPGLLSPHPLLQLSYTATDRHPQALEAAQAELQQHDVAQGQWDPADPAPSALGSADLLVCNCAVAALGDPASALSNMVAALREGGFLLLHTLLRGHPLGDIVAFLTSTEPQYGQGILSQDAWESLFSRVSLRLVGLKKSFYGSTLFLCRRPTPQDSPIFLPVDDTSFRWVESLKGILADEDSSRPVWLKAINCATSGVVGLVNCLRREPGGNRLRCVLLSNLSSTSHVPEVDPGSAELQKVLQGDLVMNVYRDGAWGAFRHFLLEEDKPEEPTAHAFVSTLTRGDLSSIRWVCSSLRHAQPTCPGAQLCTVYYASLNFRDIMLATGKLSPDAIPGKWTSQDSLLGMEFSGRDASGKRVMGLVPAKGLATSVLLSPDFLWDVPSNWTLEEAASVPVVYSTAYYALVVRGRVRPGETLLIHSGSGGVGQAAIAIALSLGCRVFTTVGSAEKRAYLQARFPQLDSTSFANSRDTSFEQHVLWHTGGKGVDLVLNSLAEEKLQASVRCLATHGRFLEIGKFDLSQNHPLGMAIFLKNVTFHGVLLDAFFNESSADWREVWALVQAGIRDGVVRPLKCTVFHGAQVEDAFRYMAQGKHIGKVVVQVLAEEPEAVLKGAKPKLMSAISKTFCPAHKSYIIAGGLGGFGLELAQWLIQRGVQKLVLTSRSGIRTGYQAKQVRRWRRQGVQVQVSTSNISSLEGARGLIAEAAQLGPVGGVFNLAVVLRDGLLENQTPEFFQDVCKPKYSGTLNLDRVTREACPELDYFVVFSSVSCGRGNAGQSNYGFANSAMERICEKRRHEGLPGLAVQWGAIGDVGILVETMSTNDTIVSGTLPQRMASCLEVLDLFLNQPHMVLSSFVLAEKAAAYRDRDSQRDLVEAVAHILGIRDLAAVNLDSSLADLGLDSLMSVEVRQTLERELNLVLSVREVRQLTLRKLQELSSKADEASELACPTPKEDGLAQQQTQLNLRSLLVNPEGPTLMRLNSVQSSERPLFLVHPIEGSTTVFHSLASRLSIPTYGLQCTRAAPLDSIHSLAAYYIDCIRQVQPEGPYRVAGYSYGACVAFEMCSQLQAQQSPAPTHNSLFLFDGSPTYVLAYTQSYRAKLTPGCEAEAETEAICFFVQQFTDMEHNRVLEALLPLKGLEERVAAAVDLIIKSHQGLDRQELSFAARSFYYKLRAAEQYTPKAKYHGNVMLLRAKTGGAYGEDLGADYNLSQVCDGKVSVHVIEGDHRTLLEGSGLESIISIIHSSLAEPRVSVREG

SMILES = CCN1[C@@H](C(=O)NC23CCC(C(=O)O)(CC2)CC3)[C@H](c2cccc(Cl)c2F)[C@]2(C(=O)Nc3cc(Cl)ccc32)C12CCCCC2; system = patients with advanced solid tumours; setting = oral, dose not given, all doses; quantity = Ageusia incidence; result = 4.8%
SMILES = O=S(=O)(Nc1ccccc1)c1ccc(NC(=S)Nc2ccccc2)cc1; system = male mouse, blood; setting = oral, 80 mg/kg daily, 14 days; quantity = haemoglobin; result = 13.8 g/dL
SMILES = O=c1nc(NO)ccn1[C@@H]1O[C@H](CO)[C@@H](O)[C@H]1O; system = rat maternal blood dialysate; setting = 25 ng/mL, more than 4 weeks, -20 °C, low concentration, together with: molnupiravir 5 ng/mL; quantity = long-term stability; result = 101.2 ± 0.58%
SMILES = CC(C)[C@@H]1NC(=O)CNC(=O)[C@H](CC(N)=O)NC(=O)[C@H](CCCNC(=N)N)NC(=O)[C@H](Cc2ccc(O)cc2)NC(=O)[C@H](C(C)C)NC(=O)[C@@H](NC(=O)[C@@H](NC(=O)[C@H](CC(N)=O)NC(=O)[C@H](Cc2c[nH]c3ccccc23)NC(=O)[C@H](C)NC(=O)[C@H](Cc2ccccc2)NC(=O)CN)C(C)C)CSSC[C@@H](C(=O)N[C@@H](Cc2cnc[nH]2)C(=O)N[C@@H](CCCNC(=N)N)C(=O)N[C@@H](CCCNC(=N)N)C(=O)N[C@@H](C)C(=O)N[C@@H](CC(N)=O)C(N)=O)NC(=O)[C@H](C(C)C)NC(=O)[C@H](CCCNC(=N)N)NC1=O; assay = HPLC; system = mouse kidney homogenate 50 mg/mL; setting = 8.00 h, 37 °C; quantity = peptide remaining; result = 9.26% and 7.83% and 12.3%
SMILES = COc1ncccc1-c1cnn2ccc(N3CCN(C(=O)OC(C)C)CC3)nc12; system = mouse formalin model, plasma; setting = oral, 60 mg/kg, 60 min; quantity = free plasma concentration; result = 510 nM
SMILES = CC(=O)c1c([O-])cc(C)oc1=O.[Na+]; system = Wistar rat, male, serum; setting = oral, 200 mg/kg, no CYP inhibitor; quantity = AUC(0-inf); result = 3460 ± 352 µg·h/mL
SMILES = CO[C@H]1C[C@@H]2CC[C@@H](C)[C@@](O)(O2)C(=O)C(=O)N2CCCC[C@H]2C(=O)O[C@H]([C@H](C)C[C@@H]2CC[C@@H](OC(=O)NCCOCCOCCOCCOCCOCCOCCOCCOCCC(=O)N3CCc4cc(Cn5nc(-c6ccc7oc(N)nc7c6)c6c(N)ncnc65)ccc4C3)[C@H](OC)C2)C[C@@H](O)[C@H](C)/C=C(\C)[C@@H](O)[C@@H](OC)C(=O)[C@H](C)C[C@H](C)/C=C/C=C/C=C/1C; assay = phase 1 dose escalation, refers to: gastric haemorrhage; system = advanced solid tumour patients; setting = intravenous, 16 mg weekly, any grade; quantity = dose-reducing adverse events; result = 25%
SMILES = CC[C@H](C)[C@H](NC(=O)[C@H](CC(C)C)NC(=O)[C@H](CCCCN)NC(=O)[C@@H](NC(=O)[C@H](C)NC(=O)[C@H](CCC(=O)O)NC(=O)[C@H](Cc1c[nH]cn1)NC(=O)[C@@H](NC(=O)[C@H](CCCCN)NC(=O)[C@H](CCC(N)=O)NC(=O)[C@H](Cc1ccccc1)NC(=O)[C@@H](NC(=O)[C@H](CCCCN)NC(=O)[C@H](CCCCN)NC(=O)[C@H](CC(C)C)NC(=O)[C@H](C)N)C(C)C)[C@@H](C)CC)[C@@H](C)CC)C(N)=O; assay = hemolysis; system = mouse erythrocytes; quantity = HC10; result = 128 µM
SMILES = CCCCNC(=O)C1CCCN(Cc2nc(-c3ccc(Cl)cc3)oc2C)C1 (stereo not shown); tested on = Vero-E6; assay = CellTiter-Glo ATP; setting = 72 h, retest 8-point duplicates; how to read = relative to: DMSO 0%, hyamine -100%, more negative, more toxic; quantity = maximum response; result = -28.8%
SMILES = CC(C)(O)c1cc(Nc2cc(Oc3cn(C4CC4)nc3C3CCOCC3)ccn2)ccn1; assay = Constipation; system = advanced cancer patients, dose escalation; setting = oral, dose not given, 3 weeks on/1 off, all causality grade ≥3; quantity = treatment-emergent adverse events; result = 0%
SMILES = CC(C)Nc1ccnc(Nc2cccc(-c3cccnc3)c2)n1; assay = refers to: Calcium; system = mouse, blood; setting = intraperitoneal, 10 mg/kg; quantity = blood chemistry; result = 8.7 mg/dL
SMILES = O=C(Nc1ccccc1)C1CCN(C(=O)Oc2cccnc2)CC1; assay = psychotropic effects VAS; system = healthy women; setting = 60 mg; how to read = relative to: pre-dose baseline, direction not given; quantity = change in Meaning score; result = 0.1
SMILES = O=C(O)C(O)(c1cccs1)c1cccs1; system = human, plasma; setting = oral, 10 mg once daily, 5 days, median; how to read = relative to: metabolite over parent; quantity = metabolite over parent AUC(0-24) ratio; result = 0.18
SMILES = NC1(C(=O)N[C@@H](CCO)c2ccc(Cl)cc2)CCN(c2nc[nH]c3nccc2-3)CC1; system = metastatic CRPC patients; setting = 400 mg b.i.d., any grade, treatment-related, together with: enzalutamide 160 mg daily; quantity = incidence of decreased appetite; result = 42.9%
SMILES = Clc1ccc(-c2ccccc2)cc1; system = rat Sprague-Dawley female, serum; setting = inhalation, 23 µg/rat, 0 h; quantity = serum CO2; result = 19 ± 5 mmol/L
SMILES = C[C@@H]1NC(=O)[C@H](CCCCNC(=O)CO/N=C/C(=O)NCCCC[C@@H]2NC(=O)[C@@H](Cc3ccccc3)NC(=O)[C@H](CC(=O)O)NC(=O)CNC(=O)[C@H](CCCNC(=N)N)NC2=O)NC(=O)CNC(=O)[C@@H]2CCCN2C(=O)[C@H](CCCCNC(=O)CO/N=C/C(=O)NCCCC[C@@H]2NC(=O)[C@@H](Cc3ccccc3)NC(=O)[C@H](CC(=O)O)NC(=O)CNC(=O)[C@H](CCCNC(=N)N)NC2=O)NC(=O)[C@H](CCCCNC(=O)CN2CCCNCCNCCCNCC2)NC(=O)[C@H](CCCCNC(=O)CO/N=C/C(=O)NCCCC[C@@H]2NC(=O)[C@@H](Cc3ccccc3)NC(=O)[C@H](CC(=O)O)NC(=O)CNC(=O)[C@H](CCCNC(=N)N)NC2=O)NC(=O)CNC(=O)[C@@H]2CCCN2C(=O)[C@H](CCCCNC(=O)CO/N=C/C(=O)NCCCC[C@@H]2NC(=O)[C@@H](Cc3ccccc3)NC(=O)[C@H](CC(=O)O)NC(=O)CNC(=O)[C@H](CCCNC(=N)N)NC2=O)NC1=O [copper-64 labelled]; system = normal mice, blood; setting = intravenous, 0.74 MBq, 3 h post-injection; quantity = tissue uptake; result = 0.09 ± 0.01 %ID/g
SMILES = C[C@]1(O)C[C@@](N)(c2ccc(-c3nc4n(c3-c3ccccc3)COc3ccncc3-4)cc2)C1; system = human, advanced or metastatic solid tumours; setting = 16 mg once daily, dose-response cohort; quantity = patients with Diarrhea TEAE; result = 0%
SMILES = C[C@H]1CN(c2n[nH]c3nc(N[C@H]4CC[C@H](NS(=O)(=O)CCC(F)(F)F)CC4)ncc23)CCO1; tested on = Fatty acid synthase (FASN, Homo sapiens, UniProt P49327); assay = inhibitor, Kinobeads competition profiling; setting = 0.032 µM; how to read = relative to: vehicle; quantity = relative abundance; result = 0.75
SMILES = CC1(C)C(/C=C(\Cl)C(F)(F)F)C1C(=O)OC(C#N)c1cccc(Oc2ccccc2)c1 (stereo not shown); assay = refers to: CYP3A5; system = human, age 1 year; quantity = enzyme contribution to clearance; result = 0.05%
SMILES = CC(C)C[C@H](NC(=O)[C@H](CCCCN)NC(=O)OCC1c2ccccc2-c2ccccc21)C(=O)N[C@H](C(=O)N[C@@H](Cc1ccccc1)C(=O)N[C@@H](Cc1ccccc1)C(=O)N[C@@H](CCCCN)C(=O)NCC(=O)N[C@@H](Cc1ccccc1)C(=O)N[C@@H](C)C(=O)N[C@@H](Cc1c[nH]c2ccccc12)C(=O)N[C@@H](CC(N)=O)C(=O)N[C@H](C(=O)N[C@H]1CSSC[C@@H](C(=O)N[C@@H](Cc2c[nH]cn2)C(=O)N[C@@H](CCCNC(=N)N)C(=O)N[C@@H](CCCNC(=N)N)C(=O)N[C@@H](C)C(=O)N[C@@H](CC(N)=O)C(N)=O)NC(=O)[C@H](C(C)C)NC(=O)[C@H](CCCNC(=N)N)NC(=O)[C@H](C(C)C)NC(=O)CNC(=O)[C@H](CC(N)=O)NC(=O)[C@H](CCCNC(=N)N)NC(=O)[C@H](Cc2ccc(O)cc2)NC(=O)[C@H](C(C)C)NC1=O)C(C)C)C(C)C; assay = circular dichroism, refers to: Parallel; system = PBS; setting = 80 µM, pH 7.4, together with: LPS 1 µM; quantity = secondary structure content; result = 3.48%
SMILES = CC(C)[C@@H]1CC[C@@H](C)C[C@@H]1O; assay = acute oral toxicity OECD; system = Swiss albino mice, serum; setting = oral, 1000 mg/kg; quantity = lactate dehydrogenase; result = 81 ± 7.13 mg/dL
SMILES = COc1ccc(C[C@@H]2NC(=O)[C@H]([C@@H](C)O)NC(=O)[C@@H]3[C@@H]4CCN3C(=O)[C@@H]3Cc5cn(c6ccc(F)cc56)CCCCCCN(Cc5ccc(cc5)CCNC(=O)[C@]5(C)CCCN5C2=O)C(=O)CCC(=O)N[C@@H](C)C(=O)N[C@H](CNC(=O)CCCCC[N+](C)(C)C)C(=O)N[C@@H](Cc2cccc(c2)CNC(=O)CO4)C(=O)N3)cc1; assay = refers to: gastroesophageal reflux disease; system = human; setting = dose not given; quantity = participants with adverse event; result = 9.7%
SMILES = COc1cccc2c1C(=O)c1c(O)c3c(c(O)c1C2=O)C[C@@](O)(C(=O)CO)C[C@@H]3O[C@H]1C[C@H](N)[C@H](O)[C@H](C)O1; system = healthy BALB/cJ mice; setting = 3 mg/kg weekly, 3 weeks; how to read = relative to: control; quantity = heart weight reduction; result = 20%
SMILES = C[C@]1(CO)Cc2ncn(-c3ccc(C#N)c(Cl)c3)c2C(=O)O1; system = human, plasma; setting = 80 mg once daily, fasted; quantity = tmax at steady state; result = 1 h
SMILES = CCN(CC)CCCNC(=O)c1ccc(-c2nc(CN3CCc4ccccc43)c(C)o2)cc1; tested on = Vero-E6; assay = CellTiter-Glo ATP; setting = 72 h, retest 8-point duplicates; how to read = relative to: DMSO 0%, hyamine -100%, more negative, more toxic; quantity = maximum response; result = -0.173%
SMILES = CCCCCCCCCCCCCCCC(=O)N[C@@H](CCC(=O)NCCCC[C@H](NC(=O)[C@H](CC(=O)O)NC(=O)[C@H](CO)NC(=O)[C@@H](NC(=O)[C@H](Cc1ccccc1)NC(=O)[C@@H](NC(=O)CNC(=O)[C@H](CCC(N)=O)NC(=O)[C@H](CO)NC(=O)[C@@H](N)Cc1c[nH]cn1)[C@@H](C)O)[C@@H](C)O)C(=O)N[C@@H](CO)C(=O)N[C@@H](CCC(=O)O)C(=O)N[C@@H](Cc1ccc(O)cc1)C(=O)N[C@@H](CC(C)C)C(=O)N[C@@H](CC(=O)O)C(=O)N[C@@H](CO)C(=O)N[C@@H](CCC(=O)O)C(=O)N[C@@H](CCCNC(=N)N)C(=O)N[C@@H](C)C(=O)N[C@@H](CCCNC(=N)N)C(=O)N[C@@H](CC(=O)O)C(=O)N[C@@H](Cc1ccccc1)C(=O)N[C@H](C(=O)N[C@@H](C)C(=O)N[C@@H](Cc1c[nH]c2ccccc12)C(=O)N[C@@H](CC(C)C)C(=O)N[C@@H](CCC(=O)O)C(=O)N[C@@H](C)C(=O)NCC(=O)NCC(=O)O)C(C)C)C(=O)O; system = human, CrCl ≥45 to <60 mL/min; setting = sc, 100 µg single dose; quantity = atrial fibrillation; result = 0%
SMILES = Clc1cc2c(cc1Cl)Oc1c(ccc(Cl)c1Cl)O2; assay = ultrafiltration; system = cow milk whey; setting = 2000 nM nominal in whole milk; quantity = final permeate concentration; result = 6.68 nM
SMILES = COc1cc(C2C3=C(COC3=O)N(CCO)c3cc4c(cc32)CCC4)cc(OC)c1OC (stereo not shown); system = female C57BL/6 mice; setting = intraperitoneal, 200 mg/kg, 72 h, single dose, mean; quantity = body weight; result = 23 g
SMILES = CNC(=O)c1cc(Oc2ccc(NC(=O)Nc3cc(C(C)(C)C)nn3-c3ccc4ncccc4c3)c(F)c2)ccn1; assay = any related SAE, NCI CTC v3.0; system = human patients; setting = oral, 1200 mg once daily, dose at onset; quantity = related SAE; result = 33%
SMILES = Cn1cncc1-c1c(F)cncc1NC(=O)c1c(N)nn2cc(F)cnc12; system = human patients; setting = oral, 180 mg once daily, 2 weeks on 1 week off; quantity = patients grade ≥3 Neutrophil count decrease; result = 0%
SMILES = CCc1ccc(CC/C=C/c2ccc3c(c2)C(=O)CC3)cc1; system = Sprague-Dawley rat, male; setting = oral, 450 mg/kg/day, 14 days; quantity = Fibrinogen; result = 3.22 g/L
SMILES = COc1cc2c(Oc3ccc4[nH]c(C)cc4c3F)ccnc2cc1OCC1(N)CC1; system = paediatric recurrent refractory sarcoma; setting = 8 mg; quantity = grade 1 or 2 Hematochezia; result = 0%
SMILES = NCCCC[C@@H]1NC(=O)[C@@H](Cc2c[nH]c3ccccc23)NC(=O)[C@H](c2ccccc2)NC(=O)[C@@H]2C[C@@H](OC(=O)NCCN)CN2C(=O)[C@H](Cc2ccccc2)NC(=O)[C@H](Cc2ccc(OCc3ccccc3)cc2)NC1=O; system = healthy volunteers, female; setting = 600 µg twice daily, 4.0 h, post hoc; quantity = placebo-corrected QTcF change; result = 4.2 ms
SMILES = CC(=O)c1c(C)c2cnc(Nc3ccc(C4CCN(CCS(C)(=O)=O)CC4)cn3)nc2n(C2CCCC2)c1=O; system = human, plasma; setting = oral, 75 mg twice daily, day 1, single dose, together with: letrozole; quantity = k_el; result = 3.89e-05 s⁻¹
SMILES = Cn1cc(-c2nc(N[C@@H]3CCCC[C@@H]3N)c(F)c3c2C(=O)NC3)cn1; assay = refers to: gingival bleeding; system = patients with relapsed or refractory AML; setting = oral, 100 mg once daily; quantity = hemorrhagic adverse events; result = 14%
SMILES = CC(C)(c1ccccc1)c1cc(-n2nc3ccccc3n2)c(O)c(C(C)(C)c2ccccc2)c1; assay = exposure assessment; system = human, age 1-2 years; setting = spray sunscreen; quantity = mean daily dermal uptake; result = 15 ng/kg body weight/day
SMILES = COc1ccc2nc3cc(Cl)ccc3c(Nc3cc(CN4CCCC4)c(O)c(CN4CCCC4)c3)c2n1; system = mouse, blood; setting = oral, 57 mg/kg, tolerability, mean; quantity = mean corpuscular haemoglobin; result = 14.7 pg
